Measured values from different studies.
Each line is one published result; not all experiments were run side by side.

`Cc1c(Cl)c(C)[n+]([O-])c(Cl)c1-c1noc(-c2cc(O)c(O)c([N+](=O)[O-])c2)n1` gave a Cmax of 1460 ng/mL (male human, plasma; oral, 50 mg, single dose, fasted, healthy volunteers).
With `Nc1cc(F)ccc1NC(=O)c1ccc(CNC(=O)/C=C/c2cccnc2)cc1` the Cmax was 199 ng/mL (human, plasma; oral, 30 mg, patients).
With `CNCc1ccc(-c2[nH]c3cc(F)cc4c3c2CCNC4=O)cc1` the Cmax was 1300 ng/mL (human, plasma; oral, 360 mg, multiple doses, twice daily, steady state, patients).
The Cmax of `CNC(=O)c1ccc(-c2cnc3ncc(Cc4ccc5ncccc5c4)n3n2)cc1F` is reported as 1580 ng/mL (human, plasma; oral, 250 mg twice daily, multiple doses, steady state, patients).
The Cmax of `COc1cccc(-c2ccc(NC(=O)C3=C(C(=O)O)CCC3)c(F)c2)c1` is reported as 1530 ng/mL (male human, plasma; oral, 10 mg, single dose, fasted, healthy volunteers).
`CNC(=O)c1ccccc1Sc1ccc2c(/C=C/c3ccccn3)n[nH]c2c1` has a Cmax of 34.9 ng/mL (human, plasma; oral, 10 mg, single dose, fed).
The Cmax of `COc1cccc(OCCCN)c1-c1cc(Nc2cnc(C#N)cn2)n[nH]1` is reported as 820 ng/mL (human, plasma; intravenous, 105 mg/m², patients, infusion).
With `C=C(C)[C@@H]1CC[C@]2(NCCN3CCS(=O)(=O)CC3)CC[C@]3(C)[C@H](CC[C@@H]4[C@@]5(C)CC=C(C6=CC[C@@](CF)(C(=O)O)CC6)C(C)(C)[C@@H]5CC[C@]43C)[C@@H]12` the Cmax was 470 ng/mL (human, plasma; oral, 40 mg, multiple doses, once daily, patients).
`C[C@@H](N)c1cc(Cl)ccc1Cn1c(=S)[nH]c(=O)c2[nH]ccc21` has a Cmax of 16.9 nM (human, plasma; oral, 2.5 mg, multiple doses, once daily, healthy volunteers).
`C[C@@H]1CCC[C@H](n2cnc(-c3cc(Cl)ccc3-n3cc(Cl)nn3)cc2=O)c2cc(ccn2)-c2c(cnn2C(F)F)NC1=O` gave a Cmax of 1020 ng/mL (human, plasma; oral, 300 mg, single dose, fasted, healthy volunteers).
For `Nc1ccc(-c2nc([C@H]3CCc4cc(-c5cc(Cl)ccc5-n5cnnn5)cc(=O)n43)c(F)[nH]2)c(F)n1`, the Cmax was 942 ng/mL (human, plasma; oral, 80 mg, single dose, fasted).
`C[C@H](N)C(=O)N1C[C@H](CCCB(O)O)[C@](N)(C(=O)O)C1` gave a Cmax of 1020 ng/mL (human, plasma; oral, 50 mg twice daily, multiple doses, patients).
`C#C[C@]1(CO)O[C@@H](n2cnc3c(N)nc(F)nc32)C[C@@H]1O` has a Cmax of 3200 nM (human, plasma; oral, 100 mg, single dose, fasted).
`Nc1ncc(-c2cnn(CCO)c2)c2scc(-c3ccc(NC(=O)Nc4cccc(F)c4)cc3)c12` has a Cmax of 294 ng/mL (human, plasma; oral, 240 mg, patients).
With `C=CC(=O)Nc1cc(Nc2ncc(C(=O)OC(C)C)c(-c3cn(C)c4ccccc34)n2)c(OC)cc1N(C)CCN(C)C` the Cmax was 52.2 ng/mL (human, plasma; oral, 160 mg, single dose, fasted, healthy volunteers).
`CCCCCN1C[C@H](O)[C@@H](O)[C@H](O)[C@@H]1CO` gave a Cmax of 16700 ng/mL (male human, plasma; oral, 2000 mg, single dose, fasted, healthy volunteers).
The Cmax of `O=C(CCCCCCC(=O)Nc1ccccc1)NO` is reported as 2350 nM (human, serum; oral, 400 mg, patients).
`CCCOc1ccc([C@H]2CNC(=O)N2c2ccc3[nH]cnc3c2)cc1` has a Cmax of 4460 ng/mL (human, plasma; oral, 500 mg, multiple doses, twice daily, fasted).
`O=C(c1nc2n(n1)[C@H](c1ccccc1)C[C@@H]2F)C1CC1` has a Cmax of 479 ng/mL (human, plasma; oral, 25 mg, single dose, fasted, healthy volunteers).
With `CC(=O)O[C@@]12CO[C@@H]1C[C@H](O)[C@@]1(C)C(=O)[C@H](O)C3=C(C)[C@@H](OC(=O)[C@H](O)[C@@H](NC(=O)OC(C)(C)C)c4ccccc4)C[C@@](O)([C@@H](OC(=O)c4ccccc4)[C@H]21)C3(C)C` the Cmax was 799 ng/mL (human, plasma; intravenous, 75 mg/m², patients).
`O=C(CCCCCCC(=O)Nc1ccccc1)NO` gave a Cmax of 167 ng/mL (human, serum; oral, 200 mg, single dose, patients).
`CN1CC[C@@H](NC(=O)Nc2ccc(C#N)cc2)C[C@@H]1c1nc2ccccc2[nH]1` has a Cmax of 281 ng/mL (human, plasma; oral, 25 mg, single dose, patients).
`C[C@H]1CO[C@@H]2Cn3cc(C(=O)NCc4ccc(F)cc4F)c(=O)c(O)c3C(=O)N12` has a Cmax of 3450 ng/mL (human, plasma; oral, 30 mg, single dose, fasted, healthy volunteers).
With `CN(C(=O)n1cnc(-c2ccc[n+]([O-])c2)c1)C1CCCCC1` the Cmax was 790 ng/mL (human, plasma; oral, 40 mg, single dose, healthy volunteers).
`CNc1nc(Nc2ccc(-n3cnc(C)n3)c(OC)c2)nc2c1CC[C@H]2c1ccc(F)cc1` has a Cmax of 721 ng/mL (human, plasma; oral, 300 mg, fed).
`CCc1nc(C(N)=O)c(Nc2ccc(N3CCC(N4CCN(C)CC4)CC3)c(OC)c2)nc1NC1CCOCC1` has a Cmax of 21.2 ng/mL (human, plasma; oral, 40 mg, single dose, fasted, healthy volunteers).
The Cmax of `CS(=O)(=O)n1cc2c(n1)CN([C@H]1CO[C@H](c3cc(F)ccc3F)[C@@H](N)C1)C2` is reported as 298 nM (male human, plasma; oral, 10 mg, single dose, fasted).

Excerpt of the above:
`CCCCCN1C[C@H](O)[C@@H](O)[C@H](O)[C@@H]1CO` gave a Cmax of 16700 ng/mL (male human, plasma; oral, 2000 mg, single dose, fasted, healthy volunteers).
The Cmax of `O=C(CCCCCCC(=O)Nc1ccccc1)NO` is reported as 2350 nM (human, serum; oral, 400 mg, patients).
`CCCOc1ccc([C@H]2CNC(=O)N2c2ccc3[nH]cnc3c2)cc1` has a Cmax of 4460 ng/mL (human, plasma; oral, 500 mg, multiple doses, twice daily, fasted).
`O=C(c1nc2n(n1)[C@H](c1ccccc1)C[C@@H]2F)C1CC1` has a Cmax of 479 ng/mL (human, plasma; oral, 25 mg, single dose, fasted, healthy volunteers).
